{"data": "Measurements from different studies", "note": "Each numbered part is a random draw from the data of one study; scales do not carry over between parts. “And” joins repeats or separate records; there may be more than shown.", "chain of UniProt Q16566 (whole entry, looked up)": "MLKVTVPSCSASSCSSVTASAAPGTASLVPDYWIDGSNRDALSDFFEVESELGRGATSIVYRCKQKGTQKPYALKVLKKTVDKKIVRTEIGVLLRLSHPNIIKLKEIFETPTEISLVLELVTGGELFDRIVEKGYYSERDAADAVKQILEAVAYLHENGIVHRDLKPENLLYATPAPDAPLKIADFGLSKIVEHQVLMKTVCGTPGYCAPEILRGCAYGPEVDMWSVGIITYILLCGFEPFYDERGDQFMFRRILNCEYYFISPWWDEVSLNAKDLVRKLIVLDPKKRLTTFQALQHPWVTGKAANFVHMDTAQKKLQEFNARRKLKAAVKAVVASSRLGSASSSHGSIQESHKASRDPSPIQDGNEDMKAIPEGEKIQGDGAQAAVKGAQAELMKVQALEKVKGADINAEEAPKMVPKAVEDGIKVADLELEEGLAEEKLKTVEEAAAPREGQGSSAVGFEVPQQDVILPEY", "chain of UniProt P36897 (whole entry, looked up)": "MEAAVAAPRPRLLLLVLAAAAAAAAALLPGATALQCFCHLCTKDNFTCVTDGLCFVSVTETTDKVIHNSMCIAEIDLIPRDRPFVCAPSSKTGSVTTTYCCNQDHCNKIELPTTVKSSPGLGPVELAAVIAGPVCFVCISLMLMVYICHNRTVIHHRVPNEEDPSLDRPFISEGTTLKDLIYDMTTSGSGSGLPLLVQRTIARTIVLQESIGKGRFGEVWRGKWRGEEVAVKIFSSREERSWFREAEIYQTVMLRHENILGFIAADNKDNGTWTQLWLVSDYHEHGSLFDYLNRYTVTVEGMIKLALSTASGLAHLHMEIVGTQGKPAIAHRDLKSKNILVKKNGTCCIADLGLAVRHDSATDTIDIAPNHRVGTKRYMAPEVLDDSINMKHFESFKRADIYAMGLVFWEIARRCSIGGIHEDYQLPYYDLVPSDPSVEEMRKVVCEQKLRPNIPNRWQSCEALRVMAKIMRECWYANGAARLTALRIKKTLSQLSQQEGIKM", "chain of UniProt P45984 (whole entry, looked up)": "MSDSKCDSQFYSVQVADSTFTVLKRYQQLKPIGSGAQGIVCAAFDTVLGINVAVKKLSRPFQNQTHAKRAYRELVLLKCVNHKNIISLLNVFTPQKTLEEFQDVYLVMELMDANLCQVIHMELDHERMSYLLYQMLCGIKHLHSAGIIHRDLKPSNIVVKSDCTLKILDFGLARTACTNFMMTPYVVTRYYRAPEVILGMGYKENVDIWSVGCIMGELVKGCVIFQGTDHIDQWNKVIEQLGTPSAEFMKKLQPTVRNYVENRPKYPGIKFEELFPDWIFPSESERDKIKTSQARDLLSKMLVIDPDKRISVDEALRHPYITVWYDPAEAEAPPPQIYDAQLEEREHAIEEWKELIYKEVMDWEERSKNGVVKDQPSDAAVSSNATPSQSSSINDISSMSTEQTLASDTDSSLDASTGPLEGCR", "chain of UniProt Q96L34 (whole entry, looked up)": "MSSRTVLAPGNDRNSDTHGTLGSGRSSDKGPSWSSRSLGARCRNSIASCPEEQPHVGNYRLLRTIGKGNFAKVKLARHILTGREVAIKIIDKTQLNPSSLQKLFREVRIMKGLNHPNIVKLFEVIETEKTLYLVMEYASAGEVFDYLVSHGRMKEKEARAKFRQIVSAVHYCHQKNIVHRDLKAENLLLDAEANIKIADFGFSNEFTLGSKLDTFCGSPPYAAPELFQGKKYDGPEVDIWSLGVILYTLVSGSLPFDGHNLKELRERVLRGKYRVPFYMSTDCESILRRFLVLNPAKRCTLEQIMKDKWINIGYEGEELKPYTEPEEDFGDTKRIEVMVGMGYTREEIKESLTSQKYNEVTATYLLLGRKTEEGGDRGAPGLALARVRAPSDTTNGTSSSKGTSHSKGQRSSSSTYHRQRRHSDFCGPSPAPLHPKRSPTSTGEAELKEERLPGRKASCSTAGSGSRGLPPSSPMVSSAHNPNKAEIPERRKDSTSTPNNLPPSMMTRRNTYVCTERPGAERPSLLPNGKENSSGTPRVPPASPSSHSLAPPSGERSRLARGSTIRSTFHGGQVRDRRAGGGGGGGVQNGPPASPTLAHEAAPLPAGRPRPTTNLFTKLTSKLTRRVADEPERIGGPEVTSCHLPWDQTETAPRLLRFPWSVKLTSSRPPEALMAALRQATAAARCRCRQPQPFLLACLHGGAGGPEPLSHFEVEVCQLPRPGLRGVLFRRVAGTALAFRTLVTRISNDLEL", "chain of UniProt P51955 (whole entry, looked up)": "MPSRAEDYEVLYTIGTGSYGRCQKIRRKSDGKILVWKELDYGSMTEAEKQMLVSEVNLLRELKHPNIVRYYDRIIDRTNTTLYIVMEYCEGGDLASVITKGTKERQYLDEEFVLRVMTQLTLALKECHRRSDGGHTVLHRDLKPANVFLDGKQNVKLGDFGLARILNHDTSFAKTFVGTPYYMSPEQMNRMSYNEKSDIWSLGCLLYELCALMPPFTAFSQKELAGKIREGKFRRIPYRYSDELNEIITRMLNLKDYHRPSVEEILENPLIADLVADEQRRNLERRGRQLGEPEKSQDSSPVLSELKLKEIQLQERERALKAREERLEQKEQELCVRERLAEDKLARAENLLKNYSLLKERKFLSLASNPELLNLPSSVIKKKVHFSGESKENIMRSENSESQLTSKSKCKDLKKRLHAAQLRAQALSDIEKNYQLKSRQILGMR", "chain of UniProt Q16832 (whole entry, looked up)": "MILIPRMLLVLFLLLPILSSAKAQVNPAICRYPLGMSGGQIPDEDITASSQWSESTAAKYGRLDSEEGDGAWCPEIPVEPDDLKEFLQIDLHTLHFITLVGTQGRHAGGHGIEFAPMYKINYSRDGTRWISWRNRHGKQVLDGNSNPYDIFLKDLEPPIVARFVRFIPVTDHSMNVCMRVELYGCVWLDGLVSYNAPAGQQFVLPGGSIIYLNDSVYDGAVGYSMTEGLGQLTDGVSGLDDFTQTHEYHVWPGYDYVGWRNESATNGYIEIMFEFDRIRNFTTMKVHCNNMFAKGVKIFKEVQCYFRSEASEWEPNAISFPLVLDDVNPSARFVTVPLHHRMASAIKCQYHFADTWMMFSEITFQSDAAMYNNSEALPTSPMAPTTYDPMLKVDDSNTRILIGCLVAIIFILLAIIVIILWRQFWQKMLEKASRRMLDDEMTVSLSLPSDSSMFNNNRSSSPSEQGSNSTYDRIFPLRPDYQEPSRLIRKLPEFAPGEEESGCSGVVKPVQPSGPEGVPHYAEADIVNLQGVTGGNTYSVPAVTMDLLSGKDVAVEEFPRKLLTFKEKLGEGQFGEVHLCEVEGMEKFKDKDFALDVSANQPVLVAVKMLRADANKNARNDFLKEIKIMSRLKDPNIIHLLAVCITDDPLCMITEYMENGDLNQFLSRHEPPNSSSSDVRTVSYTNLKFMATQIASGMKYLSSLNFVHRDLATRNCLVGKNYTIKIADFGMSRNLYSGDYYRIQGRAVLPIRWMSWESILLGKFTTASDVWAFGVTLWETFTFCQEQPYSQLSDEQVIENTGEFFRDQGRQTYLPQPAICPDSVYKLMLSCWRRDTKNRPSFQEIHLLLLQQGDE", "chain of UniProt Q8NE63 (whole entry, looked up)": "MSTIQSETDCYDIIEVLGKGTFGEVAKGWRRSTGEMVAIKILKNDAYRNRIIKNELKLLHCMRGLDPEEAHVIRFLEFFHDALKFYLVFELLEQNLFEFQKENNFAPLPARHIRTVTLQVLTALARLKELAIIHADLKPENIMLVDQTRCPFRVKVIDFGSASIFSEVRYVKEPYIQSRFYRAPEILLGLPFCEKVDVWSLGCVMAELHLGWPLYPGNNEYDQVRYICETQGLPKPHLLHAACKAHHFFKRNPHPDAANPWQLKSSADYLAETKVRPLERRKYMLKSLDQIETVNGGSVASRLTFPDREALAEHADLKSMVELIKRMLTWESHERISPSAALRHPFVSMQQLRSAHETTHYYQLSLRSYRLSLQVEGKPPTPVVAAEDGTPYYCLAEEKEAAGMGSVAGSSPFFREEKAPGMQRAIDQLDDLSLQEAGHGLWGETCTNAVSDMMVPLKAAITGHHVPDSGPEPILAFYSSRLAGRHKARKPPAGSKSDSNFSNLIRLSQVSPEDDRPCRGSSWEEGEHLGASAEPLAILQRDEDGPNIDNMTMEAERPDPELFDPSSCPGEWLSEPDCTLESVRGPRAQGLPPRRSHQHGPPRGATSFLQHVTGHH"}
{"data": "Block 1", "Structure (SMILES)": "O=C(Nc1ccccc1)Nc1cccc(Oc2ccc3nccn3n2)c1", "concentration": "1 µM"}
{"target": "FGFR3 (Homo sapiens, UniProt P22607, G697C)", "assay": "competitive binding panel", "how to read": "relative to: vehicle", "remaining binding [%]": 91}
{"target": "EIF2AK2 (Homo sapiens, UniProt P19525)", "assay": "competitive binding", "conditions": "PRKR", "remaining binding [%]": 100}
{"target": "MYLK3 (Homo sapiens, UniProt Q32MK0)", "assay": "competitive binding", "conditions": "MLCK", "remaining binding [%]": 93}
{"target": "SRC (Homo sapiens, UniProt P12931)", "assay": "competitive binding panel", "how to read": "relative to: vehicle", "remaining binding [%]": 100}
{"target": "PRKG2 (Homo sapiens, UniProt Q13237)", "assay": "competitive binding panel", "how to read": "relative to: vehicle", "remaining binding [%]": 100}
{"target": "SLK (Homo sapiens, UniProt Q9H2G2)", "assay": "competitive binding panel", "how to read": "relative to: vehicle", "remaining binding [%]": 88}
{"target": "MAPK9 (Homo sapiens, UniProt P45984)", "assay": "competitive binding", "conditions": "JNK2", "remaining binding [%]": 100}
{"target": "TGFBR1 (Homo sapiens, UniProt P36897)", "assay": "competitive binding panel", "how to read": "relative to: vehicle", "remaining binding [%]": 95}
{"target": "CDC42BPA (Homo sapiens, UniProt Q5VT25)", "assay": "competitive binding", "conditions": "MRCKA", "remaining binding [%]": 99}
{"target": "PIK3CA (Homo sapiens, UniProt P42336, E545A)", "assay": "competitive binding panel", "how to read": "relative to: vehicle", "remaining binding [%]": 100}
{"target": "LATS2 (Homo sapiens, UniProt Q9NRM7)", "assay": "competitive binding panel", "how to read": "relative to: vehicle", "remaining binding [%]": 70}
{"target": "PIK3CB (Homo sapiens, UniProt P42338)", "assay": "competitive binding panel", "how to read": "relative to: vehicle", "remaining binding [%]": 100}
{"target": "PIP4K2C (Homo sapiens, UniProt Q8TBX8)", "assay": "competitive binding panel, refers to: PIP5K2C", "how to read": "relative to: vehicle", "remaining binding [%]": 52}
{"target": "MYLK4 (Homo sapiens, UniProt Q86YV6)", "assay": "competitive binding panel", "how to read": "relative to: vehicle", "remaining binding [%]": 100}
{"data": "Block 2", "SMILES": "C[C@@H]1CN(c2cc(-c3nn(C)c4ccc(OC5(C)CC5)cc34)ncn2)C[C@H](C)O1", "concentration": "1 µM"}
{"target": "PRKCE (Homo sapiens, UniProt Q02156)", "assay": "cell-free assay, competition with immobilised ligand", "remaining binding [%]": 100}
{"target": "PLK4 (Homo sapiens, UniProt O00444)", "assay": "cell-free assay, competition with immobilised ligand", "remaining binding [%]": 65}
{"target": "CDC42BPG (Homo sapiens, UniProt Q6DT37)", "assay": "competition binding", "remaining binding [%]": 100}
{"target": "CSNK1G3 (Homo sapiens, UniProt Q9Y6M4)", "assay": "cell-free assay, competition with immobilised ligand", "remaining binding [%]": 100}
{"target": "CHEK2 (Homo sapiens, UniProt O96017)", "assay": "cell-free assay, competition with immobilised ligand", "remaining binding [%]": 97}
{"target": "TRPM6 (Homo sapiens, UniProt Q9BX84)", "assay": "cell-free assay, competition with immobilised ligand", "remaining binding [%]": 85}
{"target": "NEK2 (Homo sapiens, UniProt P51955)", "assay": "cell-free assay, competition with immobilised ligand", "remaining binding [%]": 100}
{"target": "CDKL3 (Homo sapiens, UniProt Q8IVW4)", "assay": "cell-free assay, competition with immobilised ligand", "remaining binding [%]": 88}
{"target": "EPHA4 (Homo sapiens, UniProt P54764)", "assay": "cell-free assay, competition with immobilised ligand", "remaining binding [%]": 100}
{"target": "HIPK4 (Homo sapiens, UniProt Q8NE63)", "assay": "cell-free assay, competition with immobilised ligand", "remaining binding [%]": 79}
{"target": "TESK1 (Homo sapiens, UniProt Q15569)", "assay": "cell-free assay, competition with immobilised ligand", "remaining binding [%]": 100}
{"data": "Block 3", "target": "Eukaryotic initiation factor 4A-I (EIF4A1, Homo sapiens, UniProt P60842)", "effect on": "RNA clamping", "method": "fluorescence polarization", "concentration": "concentration not given", "added": "FAM-labelled poly r(AG)8 RNA", "reading": "higher = more clamping", "chain of UniProt P60842 (whole entry, looked up)": "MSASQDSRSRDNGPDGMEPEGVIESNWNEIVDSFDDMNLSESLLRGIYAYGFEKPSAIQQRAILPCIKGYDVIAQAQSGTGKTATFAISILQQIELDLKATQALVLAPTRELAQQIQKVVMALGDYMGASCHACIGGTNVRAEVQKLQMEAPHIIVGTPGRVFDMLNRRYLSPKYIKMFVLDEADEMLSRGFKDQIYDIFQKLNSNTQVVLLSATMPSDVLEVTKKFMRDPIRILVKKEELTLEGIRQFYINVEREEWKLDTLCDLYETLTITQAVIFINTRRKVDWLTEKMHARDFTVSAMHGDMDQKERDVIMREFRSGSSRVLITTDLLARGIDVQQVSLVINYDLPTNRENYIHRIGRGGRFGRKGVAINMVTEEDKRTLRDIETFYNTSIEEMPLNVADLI"}
{"Structure (SMILES)": "COC(=O)[C@@H]1[C@@H](c2ccccc2)[C@]2(c3ccc(OC)cc3)Oc3cc(OC)cc(OC)c3[C@@]23OC(c2ccc(C(F)(F)F)cc2)=N[C@@]13O", "fluorescence polarization change": "-1.6 mP"}
{"Structure (SMILES)": "COc1ccc([C@@]23Oc4cc(OC)c(F)c(OC)c4[C@]2(O)c2nc4n(c(=O)c2[C@H]3c2ccccc2)CCC4)cc1", "fluorescence polarization change": "41.1 mP"}
{"Structure (SMILES)": "COc1ccc([C@@]23Oc4cc(OC)cc(OC)c4[C@]2(O)C2=C(C(=O)N4CCC[C@@]4(C)N2)[C@H]3c2ccccc2)cc1", "fluorescence polarization change": "6.8 mP"}
{"Structure (SMILES)": "COC(=O)[C@@H]1[C@@H](c2ccccc2)[C@]2(c3ccc(OC)cc3)Oc3cc(OC)cc(OC)c3[C@@]23N2CCCC2=N[C@@]13O", "fluorescence polarization change": "-3.1 mP"}
{"Structure (SMILES)": "COc1ccc([C@@]23Oc4cc(OC)cc(OC)c4[C@]2(O)c2nc(-c4cccc(OCc5ccccc5)c4)[nH]c(=O)c2[C@H]3c2ccccc2)cc1", "fluorescence polarization change": "18.2 mP"}
{"Structure (SMILES)": "COC(=O)[C@H]1C(=O)[C@@]2(NN(C)C)c3c(OC)cc(OC)cc3O[C@@]2(c2ccc(OC)cc2)[C@@H]1c1ccccc1", "fluorescence polarization change": "2.3 mP"}
{"Structure (SMILES)": "COc1ccc([C@@]23Oc4cc(OC)cc(OC)c4[C@]2(O)[C@H](O)[C@H](C(=O)c2ccccc2OC)[C@H]3c2ccccc2)cc1", "fluorescence polarization change": "3.4 mP"}
{"Structure (SMILES)": "COc1ccc([C@@]23Oc4cc(OC)cc(OC)c4[C@]2(O)c2nc(C4CC4)[nH]c(=O)c2[C@H]3c2ccccc2)cc1", "fluorescence polarization change": "54.6 mP and 59 mP and 76.1 mP"}
{"Structure (SMILES)": "COC(=O)[C@@H]1[C@@H](c2ccccc2)[C@]2(c3ccc(OC)cc3)Oc3cc(OC)cc(OC)c3[C@@]23NC(c2ccc(N(C)C)cc2)=N[C@@]13O", "fluorescence polarization change": "46.2 mP"}
{"Structure (SMILES)": "COc1ccc([C@@]23Oc4cc(OC)cc(OC)c4[C@]2(O)[C@H](O)[C@H](C(=O)c2ccco2)[C@H]3c2ccc(O)cc2)cc1", "fluorescence polarization change": "31 mP"}
{"Structure (SMILES)": "COc1cc(O)cc2c1[C@]1(O)[C@H](O)[C@H](C(=O)N(C)OC)[C@@H](c3ccccc3)[C@]1(c1ccc(Br)cc1)O2", "fluorescence polarization change": "87.3 mP and 58.3 mP"}
{"Structure (SMILES)": "COC(=O)[C@H]1[C@@H](O)[C@@]2(O)c3c(OC)cc(OS(=O)(=O)c4ccc(C)cc4)cc3O[C@@]2(c2ccc(Br)cc2)[C@@H]1c1ccccc1", "fluorescence polarization change": "19.3 mP and 33.2 mP"}
{"data": "Block 4", "SMILES": "O=C(c1ccccc1)c1ccc(N2CCOCC2)cc1O", "effect on": "enzyme activity", "mode": "inhibitor", "concentration": "0.5 µM", "relative to": "control"}
{"target": "DDR2 (Homo sapiens, UniProt Q16832)", "remaining activity": "103%"}
{"target": "RPS6KA4 (Homo sapiens, UniProt O75676)", "remaining activity": "105%"}
{"target": "MAP2K1 (Homo sapiens, UniProt Q02750)", "remaining activity": "98.1%"}
{"target": "Cyclin-dependent kinase 9, with cyclin K (CDK9, Homo sapiens, UniProt P50750)", "remaining activity": "97.8%"}
{"target": "MARK2 (Homo sapiens, UniProt Q7KZI7)", "remaining activity": "107%"}
{"target": "MARK4 (Homo sapiens, UniProt Q96L34)", "remaining activity": "100%"}
{"target": "CLK4 (Homo sapiens, UniProt Q9HAZ1)", "remaining activity": "101%"}
{"target": "CAMK4 (Homo sapiens, UniProt Q16566)", "remaining activity": "94.7%"}
{"target": "MAPK1 (Homo sapiens, UniProt P28482)", "remaining activity": "96.7%"}
{"target": "CLK3 (Homo sapiens, UniProt P49761)", "remaining activity": "90.2%"}
{"target": "MINK1 (Homo sapiens, UniProt Q8N4C8)", "remaining activity": "91.1%"}
{"target": "TXK (Homo sapiens, UniProt P42681)", "remaining activity": "98.5%"}
{"target": "MET (Homo sapiens, UniProt P08581)", "remaining activity": "115%"}
{"target": "ROCK1 (Homo sapiens, UniProt Q13464)", "remaining activity": "93.4%"}
{"note": "Some of these lines once more (block 4):"}
{"target": "ROCK1 (Homo sapiens, UniProt Q13464)", "remaining activity": "93.4%"}
{"target": "Cyclin-dependent kinase 9, with cyclin K (CDK9, Homo sapiens, UniProt P50750)", "remaining activity": "97.8%"}
{"target": "MAPK1 (Homo sapiens, UniProt P28482)", "remaining activity": "96.7%"}
{"target": "CLK3 (Homo sapiens, UniProt P49761)", "remaining activity": "90.2%"}
